Assay results gathered from unrelated publications.
Every numbered part comes from another study and shows a few of its results, in no order.

Sample 1 — technique: RNA Bind-n-Seq; molecule type: RNA; sample: in vitro; tested at: 200 nM; notes: whole 134-nt RNA, ends assumed; with: 150 mM KCl; reference: input library; direction: higher = stronger binding; quantity: log2 enrichment
Target: Ras GTPase-activating protein-binding protein 1, full length (G3BP1, Homo sapiens, UniProt Q13283)
Sequence of UniProt Q13283 (whole entry, looked up): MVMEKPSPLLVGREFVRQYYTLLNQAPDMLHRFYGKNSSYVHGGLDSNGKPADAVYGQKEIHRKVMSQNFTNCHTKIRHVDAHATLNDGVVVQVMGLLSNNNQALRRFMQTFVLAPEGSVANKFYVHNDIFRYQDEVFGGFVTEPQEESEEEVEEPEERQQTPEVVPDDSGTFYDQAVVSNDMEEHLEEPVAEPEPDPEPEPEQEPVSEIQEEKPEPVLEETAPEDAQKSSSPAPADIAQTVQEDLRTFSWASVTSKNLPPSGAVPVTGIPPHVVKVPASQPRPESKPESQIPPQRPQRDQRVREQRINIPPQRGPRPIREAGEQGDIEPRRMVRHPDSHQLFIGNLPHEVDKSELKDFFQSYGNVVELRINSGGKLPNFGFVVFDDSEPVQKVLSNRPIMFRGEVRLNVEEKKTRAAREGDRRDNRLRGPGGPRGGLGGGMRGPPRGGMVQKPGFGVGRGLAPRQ
Constant ends, left off below: GGGAGUUCUACAGUCCGACGAUC … UGGAAUUCUCGGGUGUCAAGG
AGUCCUGUGCUACACAUCGUAUGUACCGAAUCGGGUUUUUGGGUUUUUGGGUUUUUGGAAAGUAUUAUGUUACGCCGUUCGGAUCUGCAC: -0.868
GUCCUGUGCUACACAUCGUAUGUACCGAAUCGGGAAAAAAAGGGUUUUUGGGAAAGGGAAAGUAUUAUGUUACGCCGUUCGGAUCUGCAC: -0.61
UAACUUUAGUGGAGGAUCUGAUGGAUAUGGCAGUGGACGUGGAUUUGGGGAUGGCUAUAAUGGGUAUGGAGGAGGACCUGGAGGUGGCAA: 0.33
GUCCUGUGCUACACAUCGUAUGUACCGAAUCGGCCCCCCGGGCCCCCCGGCCCCCCGGAAAGUAUUAUGUUACGCCGUUCGGAUCUGCAC: -0.025
CAAGUCCUGUGCUACACAUCGUAUGUACCGAAUCGGUUUGGAAAAAAAGGAAAGGAAAGUAUUAUGUUACGCCGUUCGGAUCUGCACUUC: -0.942
AAGUCCUGUGCUACACAUCGUAUGUACCGAAUCGGGGCCCCGGGGCCCCGGCCCCGGAAAGUAUUAUGUUACGCCGUUCGGAUCUGCACU: 0.347
UCAAGUCCUGUGCUACACAUCGUAUGUACCGAAUCGGGGCCGGGGCCGGGCCGGGAAAGUAUUAUGUUACGCCGUUCGGAUCUGCACUUC: -0.249
CAAGUCCUGUGCUACACAUCGUAUGUACCGAAUCGGAAAAAAAGGAAAAAGGAGGAAAGUAUUAUGUUACGCCGUUCGGAUCUGCACUUC: -0.935
UGGGAGGUGGAUUUUGUUUAUUUUUUUAGCUCAUUUCCAGGGGUGGGAAUUUUCUUUUAAUAUGUGUCAUGAAUAAAGUUGUUUUUGAAA: 0.133
AGUCCUGUGCUACACAUCGUAUGUACCGAAUCGGGUUUGGGUUUGGGAAAAAAAGGGAAAGUAUUAUGUUACGCCGUUCGGAUCUGCACU: -0.444
ACCAUGCAGGUGGGCAUCUGUGGGAAGUGGGGCAAGGGGGGGAUAGGGAGGGGGGUAACACUUUGGGAACAGGUGGUCCCAGGUCGUUUC: 1.46
AAGUCCUGUGCUACACAUCGUAUGUACCGAAUCGGAAAAAGGAAAAAGGAAAAAGGGAAAGUAUUAUGUUACGCCGUUCGGAUCUGCACU: -1.1
GCAGGAAGUAAAAACAAAUGGAAAUGCUUCGGAAAAUGGCAGGGGUGGGGGUUGCUAAGGAAAGGGUGGGAUGGGAGUGGGUAAAGAGUU: 0.972
CCUCAAGUCCUGUGCUACACAUCGUAUGUACCGAAUCGGGGUGGGGUGGGUGGAAAGUAUUAUGUUACGCCGUUCGGAUCUGCACUUCCA: 1.34

Sample 2 — technique: universal PBM; molecule type: double-stranded DNA, one strand shown; sample: in vitro; tested at: not given; direction: higher = stronger binding; quantity: E-score
Target: Sal-like protein 4, full length isoform B (SALL4, Homo sapiens, UniProt Q9UJQ4-2, residues 1-616)
Notes: 8-mer, flanks averaged, mean of replicates
Target sequence (chain): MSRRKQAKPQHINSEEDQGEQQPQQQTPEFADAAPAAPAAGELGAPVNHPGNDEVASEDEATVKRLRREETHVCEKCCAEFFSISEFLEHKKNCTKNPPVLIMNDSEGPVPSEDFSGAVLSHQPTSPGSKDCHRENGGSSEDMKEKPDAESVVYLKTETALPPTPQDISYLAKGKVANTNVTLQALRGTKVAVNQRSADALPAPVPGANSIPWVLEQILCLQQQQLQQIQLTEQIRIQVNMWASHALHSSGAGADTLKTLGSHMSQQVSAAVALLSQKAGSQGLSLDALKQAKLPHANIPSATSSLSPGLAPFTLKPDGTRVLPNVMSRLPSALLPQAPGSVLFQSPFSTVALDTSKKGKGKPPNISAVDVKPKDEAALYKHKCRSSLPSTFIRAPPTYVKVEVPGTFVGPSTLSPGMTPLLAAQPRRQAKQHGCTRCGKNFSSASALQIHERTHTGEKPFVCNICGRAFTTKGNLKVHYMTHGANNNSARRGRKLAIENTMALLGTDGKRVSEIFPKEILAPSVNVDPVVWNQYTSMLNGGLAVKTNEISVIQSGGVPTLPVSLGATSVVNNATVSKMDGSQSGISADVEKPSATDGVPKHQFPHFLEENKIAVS
CTCAGGAC: -0.156
CGCAGGAC: -0.237
GGCGATCA: -0.154
CGAGTCAA: -0.0953
AGTAATTC: 0.211
AGGGTTAA: 0.0709
ATAGTAGA: 0.2
AGACAAAA: 0.115
ACGTTCCG: -0.233
CAGCCAGC: -0.282
AGACGCTA: -0.141
CTACTTGA: -0.0205
CCGTGCCG: -0.233
GGTGAAAA: 0.0211
ATGACGTC: -0.00693
TATGGACA: 0.22
AGCTAAAT: 0.113
GCCTCGCC: -0.365
CAACTTCG: -0.0783
GGATACCA: -0.0868
CCTTAATC: 0.0482

Sample 3 — technique: RNA Bind-n-Seq; molecule type: RNA; sample: in vitro; tested at: not given; reference: input RNA pool; direction: higher = stronger binding; quantity: bound/input enrichment
Target: RING finger protein unkempt homolog, zinc fingers 1-6, GST-SBP tag (UNK, Homo sapiens, UniProt Q9C0B0, residues 30-357)
Sequence of UniProt Q9C0B0 (30-357, looked up): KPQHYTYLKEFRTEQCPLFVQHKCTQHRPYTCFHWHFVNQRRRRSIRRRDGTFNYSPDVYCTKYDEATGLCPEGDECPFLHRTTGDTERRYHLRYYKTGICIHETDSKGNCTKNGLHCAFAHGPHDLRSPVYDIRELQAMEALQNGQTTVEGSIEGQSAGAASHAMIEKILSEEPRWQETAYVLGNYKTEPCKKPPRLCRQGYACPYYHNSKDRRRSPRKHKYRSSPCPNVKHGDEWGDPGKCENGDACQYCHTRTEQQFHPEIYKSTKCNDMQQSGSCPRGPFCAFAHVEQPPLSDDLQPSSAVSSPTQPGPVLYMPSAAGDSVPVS
Notes: RNA with constant flanks, human and mouse sites, ends assumed
Constant ends, left off below: GGGAGUUCUACAGUCCGACGAUC … CAACAGAGGAUUGAGCAUCA
UCCCAGUCUAUUGUUUGGGUGCAUGCUUUCCCAGAACUGUUUUUGUCUUGCUUAAAUCAUCCGGACAAAAAAAUUGUUGCCUACUCUUCAAUGAUUUUGUUUACAUCCCUUAAUCAUGAA: 0.194 ratio
AGAGCUGGCACACCGAUUCUGGGAAGCCCCGCGAAUGAUGGCUUUUGAAUUAAUGAGGCAGUGAAUGUUUUGUGUUUACUUCUAAGGGAAAUACUAACUUUCUUUCGCAUUAGUAUUAAU: 0.735 ratio
GGAAAUAACAAUCAAAAUAAACCAGGGUUCUUACGAAAGAAUCAGUAUACAAACACCAAAUUAGAAGUCAAGAAAAUCCCUCAGGAAUUGAACAACAUUACCAAGCUCAAUGAACACUUC: 2.71 ratio
GCCAAUCAGGCUAUCAAUCCAAAACUGAUGCAGCUUGUGGACCACAGAGGAGGCGGCGGAGGCGGGGGUAAGGGUGGUCGUUCUCGUUACCGGACCACUUCUUCAGCCAACAAUCCCAAU: 0.14 ratio
UGGGCCAUAGACACAUCUCAAGCAAAGUGGAUGGUAAAAUAGGAAUUCAGAAAUCAGAAAUGCUUUCUCUGGCCUGUUCCUCUCCCCCACCCCCACCCCCGUUGUUUUGUUUUUGGGUGA: 1.08 ratio
UCGGAUGCUGUGCUGGGUCACUUUUCAUAUCCAGAUCCUUCACAGUGGACAGAUGAAGAACUGGGAAUCCCUCCUGAUGACGAGGACUGACACUGUAAACUCUCUGGACGAGUAGGAGCA: 0.703 ratio
AUGGGCCGCCACUGUGGAUACCUGGCCCUUGUCACCUCUCUGUCCUGUGGGGCCGACUGGGUUUUUAUUCCUGAGUGUCCGCCAGACGAUGACUGGGAAGAACACCUUUGUCGCCGGCUC: 0.0829 ratio
AACAAACCUUGUGGUUAUCAGCAGAGCCUUCAGAGUUUCACCAUAACUCAGGCCUAGACAUUAUUCUAAAUGGCAACUGAUAUGUCUCAAGGUGAACUCAUCCAUCCUAAGGCACUCCCA: 0.0892 ratio
CUCAAUAAUACCUAUGAGUUCAUGAGCACAUUCUUCUUAGAAGUCAGCUCUGUCUUCCCAGAUUUUUAUCUUCAUCUUGGAGGAGAUGAGGUUGAUUUCACCUGCUGGAAGUCCAACCCA: 0.186 ratio
UAAAAACCGUUGUUUGCUUUAAAUUUUCAUAAACUGGAAUCCUUUCACCCGCUCCUACAGCUAACCCUCACAAGCAUGAAGUGCUGUGGCUGUUCCUUAUCCUAAUGAUGCGCUUUUGUC: 0.384 ratio
GCGCCGAGUACUCGUGCCCCCAAACCCUCCCGGAGUCUCUCUGGCUCACUUUGUGCCCUGUUUUCUGAUGCAGACUCGGGAUCCGGGAUGAAGGCGGAGCUUCCCCCUGGGCCUGGGGCA: 0.172 ratio

Sample 4 — technique: RNA Bind-n-Seq; molecule type: RNA; sample: in vitro; tested at: 365 nM; reference: no-protein control; direction: higher = stronger binding; quantity: RBNS enrichment (R)
Target: RNA binding protein fox-1 homolog 2, RRM domain, GST-SBP tag (RBFOX2, Homo sapiens, UniProt O43251-10, residues 100-194)
Notes: natural RNA segment, single round, ends assumed
Constant ends, left off below: GGGAGUUCUACAGUCCGACGAUC … UGGAAUUCUCGGGUGCCAA
Residues (chain): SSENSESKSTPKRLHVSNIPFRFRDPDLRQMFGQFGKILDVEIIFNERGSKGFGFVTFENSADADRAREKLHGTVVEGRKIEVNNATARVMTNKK
GUGUGUGUUAGAAGCCCAUUCAUUAGAAGUGUGGUGGUUAUUUGGUAUUAAACUCCAAAUGAGCCAUAGGAAGGCACUACAUGAAAUAAUGCACUGAGUAUGCAAUGCUA: 1.8
GGGGGAGCCGGGGCUCAGGGCCCCUGACUGCAUGGUGCAUGAGUGAUCUCAGCCUAGCGAUGCCGCUGGCCAGACCGUGACCAUGCUGCCAGUGUGCUCGCCAUGAGCUG: 2.62
GCUCAAAGGCACCUUUGCUUUUGUGAACUCGUUCACCCUAUCCUGUCUCCCCCAGGAUUGCCCCCCUCUCCCCUCACCCCCACAGCAUGCUGUAUUAGAUGCUCACAUUC: 1.68
AAAGACAUGAAACCUCAGGUAUCCUGCUUUAAGUUGAUAACUCCCUCUGGGAGCUGGAGAAUCGCUCUGGUGGAUGGGUGUACAGAUUUGUAUAUAAUGUCAUUUUUACG: 0.279
UAUACCCAGGAGAAUAUGUAUACCAUGUGUGUUUGACUAAGUUCACAAGGGAAGUUUUUGGCUCUGCACUCCACAUUAUCCUUUAAUUUCAAUUUCCUGGGACUAUCCCA: 0.542
UCUUUGAUACUCCUUGAAAAUUAAAACUAAGUACACCCUAUUGCUCUUCAGCUCCCAGAAACUUACGCUUCCUCAUUUCUCAUAGCAUUUUAACUAGUGAACAUAAGGAC: 0.875
ACCAGGAGCAGGAGCCAAGCAUGUCCAGUCCUCUUCUGAGACCUCUGAGGUCUCAGAAGAGAAACUUGACAGUGUCUGGUCCAUGGGGCUGCUCAGAAAAGCGCUGCUCU: 0.462
CUUUAAGAGAUUUUCAGAAAAGCUUUAUAUACAUUCUUUUCCAAUUUCAGUACAAAUGAAAGAAAAGUGGUUUUAAUCAGUGAUUUAGUGGACCUUGAGCAACUGUGCAC: 0.356
CUUAAAGCAACAACAAAACCUGUUCAUCUGGAUCCCUAGGUAAUUUUGACCAAGGUGAGACUUUUGGCAUAAAUUAAAUGGAUUGUGGUCAGCAUUACAUUUGAGAGAAU: 0.632
CUUCAGUGAAGAGGACAAAUAGUUUAUUUAAAGCAUUUGUUCCAAUAAAAUAACUAGAGGGAAACUUGGAUGCUAAAAUUCCAUAAGUAGAAAAAUCUUCCUGGCACUUG: 0.357
CUGUCAAGCUCUGGAUCCUGACCAGGUUGUACACUGGGGCUCUCUGAGCUUUGGGACACAGGACACUGCCAGGGCUACGUAGGGAACUGACUCAGAAGACGCAGCUUACU: 0.319
CGCAUGCCUGGGCCCUGCUGGGCUCUCCCACUCCAGGCGGACCCUGGGGGCCAGUGAAGGAAGCUCCCGGAAAGAGCAGAGGGAGAGCGGGUAGGCGGCUGUGUGACUCU: 1.19

For quick reference, copied from above (sample 2):
CAGCCAGC: -0.282
AGACGCTA: -0.141
CTACTTGA: -0.0205
CCGTGCCG: -0.233
GGTGAAAA: 0.0211
ATGACGTC: -0.00693
TATGGACA: 0.22
AGCTAAAT: 0.113
GCCTCGCC: -0.365
